Assay results from different studies.
Numbered parts are unrelated; each lists some results of a single study. Changes are numbered by the printed parent chain.

Study 1
Target: ABI1, truncated, D143A, DHFR fusion (Arabidopsis thaliana)
Technique: DHFR PCA, deep sequencing
Matrix: yeast
Setting: methotrexate growth selection, single substitutions
Added: (+)-ABA 710 µM
Reference: wild-type fitted maximum
Direction: higher = stronger binding
Starting sequence: PYL1, truncated, DHFR fusion (Arabidopsis thaliana); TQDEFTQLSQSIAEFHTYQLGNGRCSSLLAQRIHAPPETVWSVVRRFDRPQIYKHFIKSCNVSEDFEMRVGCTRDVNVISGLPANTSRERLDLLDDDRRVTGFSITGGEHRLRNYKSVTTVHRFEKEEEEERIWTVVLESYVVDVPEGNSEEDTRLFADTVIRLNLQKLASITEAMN; partner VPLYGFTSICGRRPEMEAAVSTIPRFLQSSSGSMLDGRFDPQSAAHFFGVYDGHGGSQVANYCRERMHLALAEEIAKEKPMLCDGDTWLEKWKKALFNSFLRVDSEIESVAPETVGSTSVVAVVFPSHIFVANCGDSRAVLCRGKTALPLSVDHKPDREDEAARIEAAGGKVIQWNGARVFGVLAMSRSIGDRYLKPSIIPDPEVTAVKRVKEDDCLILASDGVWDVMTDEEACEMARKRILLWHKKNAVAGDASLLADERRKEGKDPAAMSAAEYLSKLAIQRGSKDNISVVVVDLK
`Q2H` — result for “relative binding score”: 102%.
`C25M` — result for “relative binding score”: 88.8%.
Under “relative binding score”, `D3P` is recorded as 105%.
`S27T` — result for “relative binding score”: 84.1%.
`F103L` — result for “relative binding score”: 55.5%.
For `D48K`, “relative binding score” read 62.1%.
`V142S`: “relative binding score” 101%.
Under “relative binding score”, `V145E` is recorded as 53.9%.
`Q10R` — result for “relative binding score”: 102%.

Study 2
Target: Interferon regulatory factor 7, full length, phosphomimetic (IRF7, Homo sapiens, UniProt Q92985, residues 1-503, S101K/S471D/S472D/S475D/S476D/S477D/S483D/S484D/S487D)
Sequence of UniProt Q92985 (whole entry, unmodified, looked up): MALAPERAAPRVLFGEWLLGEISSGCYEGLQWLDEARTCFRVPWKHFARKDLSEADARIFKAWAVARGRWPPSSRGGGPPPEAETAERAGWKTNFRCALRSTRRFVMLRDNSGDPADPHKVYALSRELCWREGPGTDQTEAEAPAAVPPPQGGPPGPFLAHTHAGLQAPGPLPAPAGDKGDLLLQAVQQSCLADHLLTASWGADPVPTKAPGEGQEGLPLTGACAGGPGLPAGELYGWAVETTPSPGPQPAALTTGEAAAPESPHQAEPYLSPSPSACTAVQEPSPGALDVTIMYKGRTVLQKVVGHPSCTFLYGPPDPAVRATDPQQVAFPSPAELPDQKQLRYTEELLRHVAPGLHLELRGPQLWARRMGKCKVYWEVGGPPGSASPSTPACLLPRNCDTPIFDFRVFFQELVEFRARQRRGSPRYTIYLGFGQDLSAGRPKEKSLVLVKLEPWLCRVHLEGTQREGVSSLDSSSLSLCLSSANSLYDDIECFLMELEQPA
Technique: protein-binding microarray
Molecule type: double-stranded DNA, one strand shown
Matrix: in vitro
Tested at: 250 nM
Setting: 60-bp whole probe
Added: salmon DNA 0.4 mg/ml
Reference: random background probes
Direction: higher = stronger binding
Shared flanks, not repeated: GCCTAGCAC … GTCTTGATTCGCTTGACGCTGCTG
For `TTAGGTCTCGCTATCGGTTAGTGCTAG`, the log fluorescence was 1.38 z-score.
With `TGGGCTACCTCTCTTAGAATGTGCTAG` the log fluorescence was -0.931 z-score.
For `GGCGGTATCCTACTGCTGACGTGCTAG`, the log fluorescence was -0.723 z-score.
The log fluorescence of `TCAAATTTACTTTGGTTACTGTGCTAG` is reported as 0.151 z-score.
With `TAAGGTCTCGGACTGGGTTAGTGCTAG` the log fluorescence was 0.364 z-score.
With `TATAGCTGATACATATAGCCGTGCTAG` the log fluorescence was -0.212 z-score.
For `TTAGGGATCCTTTTCCTTTAGTGCTAG`, the log fluorescence was 1.37 z-score.
With `AAGGATTTCAGTTTCTCTTTGTGCTAG` the log fluorescence was 5.88 z-score.
For `TCACTTTTCATGCTCTTACTGTGCTAG`, the log fluorescence was 1.07 z-score.
For `TTAGGTATCGACACCGGGTTAGTGCTA`, the log fluorescence was 0.206 z-score.
For `TCACCTCTAGACTCTAAAACTGTGCTA`, the log fluorescence was 0.179 z-score.
`TTTGCTCTGTGCATAGGTCTGTGCTAG` has a log fluorescence of -0.32 z-score.
For `GGAGGTCTGGATGTGCCGCGGTGCTAG`, the log fluorescence was -1.18 z-score.
For `CTCTGTCTGGGATGTAATTCCGTGCTA`, the log fluorescence was -0.0232 z-score.
`GACGGTCCCGGACTGGGGACGTGCTAG` has a log fluorescence of -0.231 z-score.

Study 3
Target: CCNF, cyclin fold, Cln2 fusion (human)
Technique: yeast growth competition, sequencing
Matrix: yeast
Setting: strong parent motif
Reference: not given
Direction: higher = stronger binding
Starting sequence: INSM1 docking peptide (human); PKAIRKLHFEDEV
For `L7R`, “normalised enrichment score” read 0.0384.
`A3N`: “normalised enrichment score” 1.96.
For `E10L`, “normalised enrichment score” read 7.29.
`A3R`: “normalised enrichment score” 2.39.
Under “normalised enrichment score”, `L7N` is recorded as -0.253.
Under “normalised enrichment score”, `E12H` is recorded as 7.76.
For `E12S`, “normalised enrichment score” read 7.93.
`K6S` — result for “normalised enrichment score”: 5.77.
`F9P`: “normalised enrichment score” 0.402.

Further values, each from its own experiment
With `PhoQ, residues 284 288 289 292 302 303 SSYNSA` the fold induction was 2.13 (PhoP, residues 12 14 15 18 19 SHWTV (Escherichia coli, UniProt P23836); Sort-seq, refers to: YFP reporter; E. coli; PhoQ-PhoP variant library, added: 10 µM Mg2+; reference: high Mg2+ state, higher = stronger signaling).

For quick reference, copied from above (study 1):
For `D48K`, “relative binding score” read 62.1%.
`Q2H` — result for “relative binding score”: 102%.
Under “relative binding score”, `V145E` is recorded as 53.9%.
